Values quoted from earlier work that unrelated publications cite.
± gives the spread as reported.
Chain of UniProt P23975 (whole entry, looked up): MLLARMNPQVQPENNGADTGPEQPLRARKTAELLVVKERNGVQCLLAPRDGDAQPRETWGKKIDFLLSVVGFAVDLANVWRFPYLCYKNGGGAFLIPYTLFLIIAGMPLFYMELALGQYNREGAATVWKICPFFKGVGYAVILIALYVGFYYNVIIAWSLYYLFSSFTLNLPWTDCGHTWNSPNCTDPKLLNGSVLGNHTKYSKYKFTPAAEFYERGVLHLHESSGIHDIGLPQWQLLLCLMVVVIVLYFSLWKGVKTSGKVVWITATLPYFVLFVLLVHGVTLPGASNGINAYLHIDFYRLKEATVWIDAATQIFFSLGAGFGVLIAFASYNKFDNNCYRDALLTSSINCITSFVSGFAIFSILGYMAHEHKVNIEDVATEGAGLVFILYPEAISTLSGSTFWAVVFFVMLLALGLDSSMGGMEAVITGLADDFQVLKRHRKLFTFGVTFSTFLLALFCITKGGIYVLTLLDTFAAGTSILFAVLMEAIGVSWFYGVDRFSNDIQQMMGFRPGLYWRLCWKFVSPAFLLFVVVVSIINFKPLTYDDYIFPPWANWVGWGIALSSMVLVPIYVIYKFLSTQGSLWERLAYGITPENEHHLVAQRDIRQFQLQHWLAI
Chain of UniProt Q9R0C9 (whole entry, looked up): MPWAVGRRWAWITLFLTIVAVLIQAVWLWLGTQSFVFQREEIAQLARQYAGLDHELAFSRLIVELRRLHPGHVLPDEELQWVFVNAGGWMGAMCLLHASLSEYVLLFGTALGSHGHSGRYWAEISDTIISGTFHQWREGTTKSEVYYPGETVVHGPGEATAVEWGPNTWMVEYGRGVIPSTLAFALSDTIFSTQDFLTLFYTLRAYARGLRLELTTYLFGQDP
Chain of UniProt Q5U3Y7 (whole entry, looked up): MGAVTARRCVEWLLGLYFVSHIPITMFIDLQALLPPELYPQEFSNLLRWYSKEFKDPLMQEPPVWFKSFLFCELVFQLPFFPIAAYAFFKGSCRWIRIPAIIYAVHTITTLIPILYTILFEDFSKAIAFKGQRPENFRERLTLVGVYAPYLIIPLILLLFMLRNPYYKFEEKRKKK
Chain of UniProt P28221 (whole entry, looked up): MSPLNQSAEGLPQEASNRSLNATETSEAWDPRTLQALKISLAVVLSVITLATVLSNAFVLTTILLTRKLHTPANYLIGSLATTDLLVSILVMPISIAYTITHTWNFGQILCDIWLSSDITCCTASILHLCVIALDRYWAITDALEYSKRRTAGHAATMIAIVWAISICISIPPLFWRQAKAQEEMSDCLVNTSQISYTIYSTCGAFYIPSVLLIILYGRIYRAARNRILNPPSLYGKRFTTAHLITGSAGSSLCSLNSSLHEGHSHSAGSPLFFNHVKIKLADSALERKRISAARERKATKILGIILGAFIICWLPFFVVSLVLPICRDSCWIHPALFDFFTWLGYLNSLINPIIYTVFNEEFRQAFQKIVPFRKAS

With `CCCCn1cc(C(=O)c2cccc3ccccc23)c2ccccc21` the Ki was 9 nM (cannabinoid CB1 receptor).
The Ki of `C=CCN(CC=C)CCc1c[nH]c2ccccc12` is reported as 101 nM (Sigma non-opioid intracellular receptor 1 (Sigmar1, Rattus norvegicus, UniProt Q9R0C9); binding, radioligand binding; rat brain; with: [3H](+)-pentazocine).
With `(+)-methamphetamine` the Ki was 6100 nM (human alpha2-adrenoceptor; with: [3H]rauwolscine; lower = stronger binding).
With `C=CCN(CC=C)CCc1c[nH]c2ccc(Br)cc12` the Ki was 224 nM (Sigma intracellular receptor 2 (Tmem97, Rattus norvegicus, UniProt Q5U3Y7)).
With `Oc1ccc2c3c1O[C@H]1c4[nH]c5c(c4C[C@@]4(O)[C@@H](C2)N(CC2CC2)CC[C@]314)C[C@@]1(O)[C@H]2Cc3ccc(O)c4c3[C@@]1(CCN2CC1CC1)[C@H]5O4` the Ki was 0.09 to 1.09 nM (kappa opioid receptor).
For `C=CCN(CC=C)CCc1c[nH]c2ccc(OC)cc12`, the Ki was 107 nM (5-hydroxytryptamine receptor 1D (HTR1D, Homo sapiens, UniProt P28221)).
`CCCCCn1cc(C(=O)Cc2ccccc2C)c2ccccc21` gave a Ki of 146 ± 36 nM (cannabinoid CB2 receptor; binding).
`CNC1=Nc2ccc(Cl)cc2C(c2ccccc2)=[N+]([O-])C1` gave a Ki of 143 ± 55 nM (GABA-A receptor benzodiazepine site (zebrafish); zebrafish whole brain membranes; with: [3H]flunitrazepam).
With `CCCCCn1cc(C(=O)c2ccc(OC)c3ccccc23)c2ccccc21` the Ki was 1.2 nM (cannabinoid CB1 receptor).
With `COC(=O)[C@H]1[C@@H](c2ccc(F)cc2)C[C@@H]2CC[C@H]1N2C` the Ki was 635 ± 110 nM (Sodium-dependent noradrenaline transporter (SLC6A2, Homo sapiens, UniProt P23975); binding).
For `C[C@]12CC[C@H]3[C@@H](CCC4=CC(=O)CC[C@@]43C)[C@@H]1CC[C@H]2O`, the Ki was 10000 ± 2200 nM (human AKR1D1; substrate).
`CCCCCn1cc(C(=O)c2cccc3ccccc23)c2ccccc21` has a Ki of 9 ± 5 nM (cannabinoid CB1 receptor; binding).
`COc1ccc2c(c1)c(CCN1CCOCC1)c(C)n2C(=O)c1cccc(Cl)c1Cl` gave a Ki of 4 to 12 nM (cannabinoid CB2 receptor (human); binding).
The Ki of `C[C@]12CC[C@H]3[C@@H](CCC4=CC(=O)CC[C@@H]43)[C@@H]1CC[C@@H]2O` is reported as 18600 ± 3400 nM (human AKR1D1; substrate).
For `O=C(c1cccc2ccccc12)c1cn(CCCCCF)c2ccccc12`, the Ki was 1 nM (CB1 receptor; binding).
